{"data": "Results collected from several papers", "organism": "SARS-CoV-2", "note": "Lines come from different studies, so protocols differ. ± marks the error that the study gave."}
{"Compound": "COc1ccc2nc3cc(Cl)ccc3c(N3CCOCC3)c2c1", "assay": "viral replication", "system": "U2OS, BetaCoV/France/IDF0372/2020", "IC50": "> 50000 nM"}
{"Compound": "CC1OC(OC2C(OCC34CCC(C)(C)CC3C3=CCC5C6(C)CCC(OC7OC(CO)C(O)C(O)C7O)C(C)(C)C6CCC5(C)C3(C)CC4O)OCC(O)C2O)C(O)C(O)C1OC1OCC(O)C(OC2OCC(O)C(O)C2O)C1O (stereo not drawn)", "assay": "pseudovirus cell entry, luciferase reporter", "system": "NCI-H1299 ACE2-expressing", "conditions": "24 h", "IC50": "> 10000 nM"}
{"Compound": "Oc1ccc(Nc2c3cc(Cl)ccc3nc3ccc(Cl)cc23)cc1CN1CCCC1", "assay": "viral replication", "system": "U2OS, BetaCoV/France/IDF0372/2020", "IC50": "1750 nM"}
{"Compound": "C#CCOP(=O)(O)Oc1c2c(c(OP(=O)(O)OCC#C)c3c1C1CC3c3cc4c(cc31)C1CC4c3ccccc31)C1CC2c2cc3c(cc21)C1CC3c2ccccc21", "assay": "spike pseudoparticle entry", "system": "Caco-2", "IC50": "13700 nM"}
{"Compound": "CCC(CC)COC(=O)[C@H](C)N[P@](=O)(OC[C@H]1O[C@@](C#N)(c2ccc3c(N)ncnn23)[C@H](O)[C@@H]1O)Oc1ccccc1", "assay": "viral replication, RT-qPCR, refers to: viral RNA in supernatant", "system": "Calu-3, RIM-1", "IC50": "94 nM"}
{"Compound": "O=P(O)(OCc1ccc(-c2ccccc2)cc1)Oc1c2c(c(OP(=O)(O)OCc3ccc(-c4ccccc4)cc3)c3c1C1CC3c3cc4c(cc31)C1CC4c3ccccc31)C1CC2c2cc3c(cc21)C1CC3c2ccccc21", "assay": "spike pseudoparticle entry", "system": "Caco-2", "IC50": "2900 nM"}
{"Compound": "Cc1cn2nc([C@@H]3CCCCN3C(=O)c3cc(Cl)ccc3NS(C)(=O)=O)cc2nc1N1CC[C@H](N)C1", "assay": "viral replication", "system": "Vero E6", "IC50": "6740 nM"}
{"Compound": "CCN(CC)CCCC(C)Nc1c2ccc(Cl)cc2nc2ccc(OC)nc12 (stereo not drawn)", "assay": "viral replication", "system": "U2OS, BetaCoV/France/IDF0372/2020", "IC50": "1270 nM"}
{"Compound": "CCOP(=O)(O)Oc1c2c(c(OP(=O)(O)OCC)c3c1C1CC3c3cc4c(cc31)C1CC4c3ccccc31)C1CC2c2cc3c(cc21)C1CC3c2ccccc21", "assay": "spike pseudoparticle entry", "system": "Caco-2", "IC50": "29500 nM"}
{"Compound": "CC1OC(OC2C(OC(=O)C34CCC(C)(C)CC3C3=CCC5C6(C)CCC(OC7OC(CO)C(O)C(O)C7O)C(C)(C)C6CCC5(C)C3(C)CC4O)OCC(O)C2O)C(O)C(O)C1OC1OCC(O)C(OC2OCC(O)C(OC3OCC(O)C(O)C3O)C2O)C1O (stereo not drawn)", "assay": "viral entry", "system": "A549-ACE2-TMPRSS2, NLuc reporter virus", "conditions": "24 h", "IC50": "2010 nM"}
{"Compound": "C#CCCCOP(=O)(O)Oc1c2c(c(OP(=O)(O)OCCCC#C)c3c1C1CC3c3cc4c(cc31)C1CC4c3ccccc31)C1CC2c2cc3c(cc21)C1CC3c2ccccc21", "assay": "spike pseudoparticle entry", "system": "Caco-2", "IC50": "15300 nM"}
{"Compound": "Cc1oc2nc1C(=O)N[C@](C)(C(=O)NCCc1ccccc1)c1nc(c(C)o1)C(=O)N[C@](C)(C(=O)NCCc1ccccc1)c1nc(c(C)o1)C(=O)N[C@]2(C)C(=O)NCCc1ccccc1", "assay": "viral replication", "system": "Vero E6, NRC-03-nhCoV", "conditions": "72 h", "IC50": "24700 nM"}
{"Compound": "CC[C@H](C)[C@H](NC(=O)[C@H](C)NC(=O)[C@H](CCC(=O)O)NC(=O)[C@H](CCC(=O)O)NC(=O)[C@H](CC(C)C)NC(=O)[C@H](CCCCN)NC(=O)[C@H](CCCCN)NC(=O)[C@H](CCSC)NC(=O)[C@H](CCC(=O)O)NC(=O)[C@H](Cc1ccc(O)cc1)NC(=O)[C@H](CCC(=O)O)NC(=O)[C@H](CC(C)C)NC(=O)[C@H](CC(=O)O)NC(=O)[C@H](CC(C)C)NC(=O)[C@H](Cc1ccccc1)NC(=O)[C@@H](NC(=O)[C@@H](NC(=O)[C@@H](N)CC(N)=O)C(C)C)[C@@H](C)O)C(=O)N[C@@H](CCCCN)C(=O)N[C@@H](CCCCN)C(=O)N[C@@H](CC(C)C)C(=O)N[C@@H](CCC(=O)O)C(=O)N[C@@H](CCC(=O)O)C(=O)N[C@@H](CO)C(=O)N[C@@H](Cc1ccc(O)cc1)C(=O)N[C@H](C(=O)N[C@@H](CC(=O)O)C(=O)N[C@@H](CC(C)C)C(=O)N[C@@H](CCCCN)C(=O)N[C@@H](CCC(=O)O)C(=O)N[C@@H](CC(C)C)C(=O)NCC(=O)N[C@H](C(=O)N[C@@H](Cc1ccc(O)cc1)C(=O)N[C@@H](CCC(=O)O)C(=O)N[C@@H](Cc1ccc(O)cc1)C(N)=O)[C@@H](C)O)[C@@H](C)CC", "assay": "viral replication", "IC50": "1410 nM"}
{"Compound": "COc1ccc2nc3cc(Cl)ccc3c(Nc3ccc(O)c(CN4CCCC4)c3)c2n1", "assay": "viral replication", "system": "U2OS, BetaCoV/France/IDF0372/2020", "IC50": "1960 nM"}
{"Compound": "CC(C)OP(=O)(O)Oc1c2c(c(OP(=O)(O)OC(C)C)c3c1C1CC3c3cc4c(cc31)C1CC4c3ccccc31)C1CC2c2cc3c(cc21)C1CC3c2ccccc21", "assay": "spike pseudoparticle entry", "system": "Caco-2", "IC50": "29200 nM"}
{"Compound": "Cc1ccc(N2CC(N3CCC(C)(O)CC3)C2)cc1C(=O)NC1(c2ccc3c4c(cccc24)C(=O)N3C)CC1", "assay": "viral replication", "system": "Vero C1008, XBB.1", "IC50": "40.7 ± 10.5 nM"}
{"Compound": "CC1CC2C3(O)C1OC(=O)C=CC=CC(OC(=O)c1ccccc1)C1CCC(CC(C)(O)C4(O)C5OC6(c7ccccc7)OC4C(C4OC4(C)C3O)C2(O6)C5C)C1C (stereo not drawn)", "assay": "viral replication", "system": "Vero E6", "IC50": "130 nM"}
{"Compound": "COc1ccc2nc3ccc(Cl)cc3c(Nc3ccc(O)c(CN4CCCC4)c3)c2c1", "assay": "viral replication", "system": "U2OS, BetaCoV/France/IDF0372/2020", "IC50": "480 nM"}
{"Compound": "C#CCCOP(=O)(O)Oc1c2c(c(OP(=O)(O)OCCC#C)c3c1C1CC3c3cc4c(cc31)C1CC4c3ccccc31)C1CC2c2cc3c(cc21)C1CC3c2ccccc21", "assay": "spike pseudoparticle entry", "system": "Caco-2", "IC50": "11000 nM"}
{"Compound": "CC(=O)OC1CC2(C)C(=CCC3C4(C)CCC(O)C(C)(C)C4CCC32C)C2CC(C)(C)CCC12C(=O)OC1OCC(O)C(O)C1OC1OC(C)C(OC2OCC(O)C(OC3OCC(O)C(O)C3O)C2O)C(O)C1O (stereo not drawn)", "assay": "pseudovirus cell entry, luciferase reporter", "system": "NCI-H1299 ACE2-expressing", "conditions": "24 h", "IC50": "> 10000 nM"}
{"Compound": "COc1cc2c(cc1O)CCN[C@]21CS[C@@H]2c3c(OC(C)=O)c(C)c4c(c3[C@H](COC1=O)N1[C@@H]2[C@H]2c3c(cc(C)c(OC)c3O)C[C@@H]([C@@H]1C#N)N2C)OCO4", "assay": "viral replication, RT-qPCR, refers to: viral RNA in supernatant", "system": "Calu-3, SA", "IC50": "0.007 nM"}
{"note": "A few entries again:"}
{"Compound": "Oc1ccc(Nc2c3cc(Cl)ccc3nc3ccc(Cl)cc23)cc1CN1CCCC1", "assay": "viral replication", "system": "U2OS, BetaCoV/France/IDF0372/2020", "IC50": "1750 nM"}
{"Compound": "C#CCOP(=O)(O)Oc1c2c(c(OP(=O)(O)OCC#C)c3c1C1CC3c3cc4c(cc31)C1CC4c3ccccc31)C1CC2c2cc3c(cc21)C1CC3c2ccccc21", "assay": "spike pseudoparticle entry", "system": "Caco-2", "IC50": "13700 nM"}
